# Measurements from different studies.
# Numbered parts are unrelated; each lists some results of a single study.
# Chain of UniProt P10721 (whole entry, unmodified, looked up): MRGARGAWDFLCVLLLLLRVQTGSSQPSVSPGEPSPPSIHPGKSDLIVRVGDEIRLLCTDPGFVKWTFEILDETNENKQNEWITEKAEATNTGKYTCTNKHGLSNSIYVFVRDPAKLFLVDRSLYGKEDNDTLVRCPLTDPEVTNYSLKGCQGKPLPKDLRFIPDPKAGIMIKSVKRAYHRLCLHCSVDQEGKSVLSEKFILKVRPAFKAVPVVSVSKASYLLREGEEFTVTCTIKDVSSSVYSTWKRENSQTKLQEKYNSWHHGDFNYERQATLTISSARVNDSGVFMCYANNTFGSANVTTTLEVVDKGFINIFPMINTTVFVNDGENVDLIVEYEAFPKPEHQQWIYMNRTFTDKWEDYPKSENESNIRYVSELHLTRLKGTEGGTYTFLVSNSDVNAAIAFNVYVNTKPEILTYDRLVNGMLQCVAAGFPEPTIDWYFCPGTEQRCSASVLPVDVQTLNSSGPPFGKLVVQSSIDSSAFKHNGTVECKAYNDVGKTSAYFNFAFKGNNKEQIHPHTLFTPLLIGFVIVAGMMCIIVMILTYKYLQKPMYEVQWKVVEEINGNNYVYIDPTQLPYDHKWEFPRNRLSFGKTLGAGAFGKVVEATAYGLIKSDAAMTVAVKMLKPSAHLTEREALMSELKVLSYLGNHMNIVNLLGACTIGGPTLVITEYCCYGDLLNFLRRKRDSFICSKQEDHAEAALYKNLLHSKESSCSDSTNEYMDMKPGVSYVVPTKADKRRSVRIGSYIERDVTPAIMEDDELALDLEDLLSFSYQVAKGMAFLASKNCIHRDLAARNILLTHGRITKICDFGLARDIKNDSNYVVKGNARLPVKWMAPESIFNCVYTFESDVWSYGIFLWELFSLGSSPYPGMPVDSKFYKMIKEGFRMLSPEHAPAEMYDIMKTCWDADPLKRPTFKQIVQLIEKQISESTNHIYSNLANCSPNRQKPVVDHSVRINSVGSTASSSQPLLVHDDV
# Chain of UniProt Q99558 (whole entry, looked up): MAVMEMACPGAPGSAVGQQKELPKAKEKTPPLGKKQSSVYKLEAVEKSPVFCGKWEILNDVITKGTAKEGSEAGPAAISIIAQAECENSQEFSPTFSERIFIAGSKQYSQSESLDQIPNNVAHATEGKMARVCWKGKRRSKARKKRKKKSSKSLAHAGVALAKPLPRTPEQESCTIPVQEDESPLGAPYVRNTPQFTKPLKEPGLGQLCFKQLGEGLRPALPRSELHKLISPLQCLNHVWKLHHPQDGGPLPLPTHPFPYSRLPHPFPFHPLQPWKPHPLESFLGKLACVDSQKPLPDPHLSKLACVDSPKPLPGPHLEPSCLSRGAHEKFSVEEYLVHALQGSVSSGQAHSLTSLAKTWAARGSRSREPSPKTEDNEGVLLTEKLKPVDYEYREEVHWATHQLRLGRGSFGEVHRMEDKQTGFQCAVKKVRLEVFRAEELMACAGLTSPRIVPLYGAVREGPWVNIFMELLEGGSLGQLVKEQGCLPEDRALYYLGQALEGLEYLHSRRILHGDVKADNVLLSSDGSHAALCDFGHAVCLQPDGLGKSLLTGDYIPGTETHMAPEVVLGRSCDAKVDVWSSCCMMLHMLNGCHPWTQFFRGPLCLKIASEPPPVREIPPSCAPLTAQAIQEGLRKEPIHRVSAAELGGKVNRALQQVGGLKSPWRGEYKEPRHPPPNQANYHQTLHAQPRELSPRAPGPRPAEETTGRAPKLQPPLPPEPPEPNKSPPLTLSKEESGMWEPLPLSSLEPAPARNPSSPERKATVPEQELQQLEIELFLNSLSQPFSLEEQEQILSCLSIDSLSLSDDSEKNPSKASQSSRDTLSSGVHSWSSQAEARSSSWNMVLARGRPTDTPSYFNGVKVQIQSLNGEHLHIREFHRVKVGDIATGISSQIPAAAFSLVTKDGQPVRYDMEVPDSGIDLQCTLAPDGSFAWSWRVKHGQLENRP
# Chain of UniProt O75676 (whole entry, looked up): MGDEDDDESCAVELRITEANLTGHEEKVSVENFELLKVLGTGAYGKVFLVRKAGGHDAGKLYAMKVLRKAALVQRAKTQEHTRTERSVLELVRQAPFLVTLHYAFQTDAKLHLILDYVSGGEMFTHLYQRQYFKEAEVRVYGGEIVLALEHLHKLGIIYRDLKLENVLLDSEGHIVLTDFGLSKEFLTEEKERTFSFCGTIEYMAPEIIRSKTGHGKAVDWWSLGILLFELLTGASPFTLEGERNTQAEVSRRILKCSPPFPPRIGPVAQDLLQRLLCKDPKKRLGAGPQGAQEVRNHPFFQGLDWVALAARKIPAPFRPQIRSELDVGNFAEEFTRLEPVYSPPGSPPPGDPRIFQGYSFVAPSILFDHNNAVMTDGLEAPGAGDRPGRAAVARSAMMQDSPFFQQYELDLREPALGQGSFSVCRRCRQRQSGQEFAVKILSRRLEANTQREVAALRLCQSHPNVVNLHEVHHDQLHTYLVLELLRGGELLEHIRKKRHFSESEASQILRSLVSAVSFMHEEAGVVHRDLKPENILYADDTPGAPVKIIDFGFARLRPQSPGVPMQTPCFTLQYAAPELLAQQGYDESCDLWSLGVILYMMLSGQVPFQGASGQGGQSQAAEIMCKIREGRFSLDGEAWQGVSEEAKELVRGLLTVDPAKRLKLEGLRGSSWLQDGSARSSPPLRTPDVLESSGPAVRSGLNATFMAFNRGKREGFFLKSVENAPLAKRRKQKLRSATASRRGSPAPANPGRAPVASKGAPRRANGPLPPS
# Chain of UniProt Q9NYY3 (whole entry, looked up): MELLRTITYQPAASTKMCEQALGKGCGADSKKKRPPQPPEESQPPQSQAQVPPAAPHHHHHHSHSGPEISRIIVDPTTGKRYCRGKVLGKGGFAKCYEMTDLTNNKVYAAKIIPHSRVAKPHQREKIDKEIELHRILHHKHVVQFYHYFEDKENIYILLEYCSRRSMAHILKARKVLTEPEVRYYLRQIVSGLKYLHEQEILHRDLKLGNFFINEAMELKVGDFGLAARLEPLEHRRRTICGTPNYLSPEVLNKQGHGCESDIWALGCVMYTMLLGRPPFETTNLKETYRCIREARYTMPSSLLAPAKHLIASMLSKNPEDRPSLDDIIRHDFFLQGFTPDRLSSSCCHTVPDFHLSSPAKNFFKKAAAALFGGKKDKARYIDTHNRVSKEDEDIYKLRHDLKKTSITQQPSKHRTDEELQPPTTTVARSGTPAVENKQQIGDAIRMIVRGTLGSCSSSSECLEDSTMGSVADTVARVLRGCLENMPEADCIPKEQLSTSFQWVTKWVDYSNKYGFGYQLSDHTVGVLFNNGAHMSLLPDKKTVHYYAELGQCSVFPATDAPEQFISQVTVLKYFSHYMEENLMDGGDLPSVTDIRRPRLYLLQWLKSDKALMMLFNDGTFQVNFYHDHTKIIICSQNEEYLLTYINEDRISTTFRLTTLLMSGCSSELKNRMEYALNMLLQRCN

# Set 1 — host: mouse; sample: microsomes or S9; tested at: 2 µM; time: 0.5 h
SMILES,remaining compound [%]
O=C(c1cccnc1Cl)N1CCCCC1c1ccccc1 (centres unmarked),10.2
CC[C@H](C)[C@@H](CO)NC(=O)c1cc(C)nc(C)c1,72.2
c1ccc(/N=c2/nc(N3CCN(C(c4ccccc4)c4ccccc4)CC3)nc(Nc3ccccc3)[nH]2)cc1,> 99
CC(C)Oc1cccc(/C=C(/F)Oc2ccc(OC[C@@H]3C[C@@](Cn4cncn4)(c4ccc(Cl)cc4Cl)N(C)O3)cc2)c1,0
CCOC(=O)C1SC2(C(F)(F)F)CC1(O)C(C)(C)CO2 (centres unmarked),> 99
Cc1c(Cl)c(C(=O)NN2CCOCC2)nn1C,97.9
COc1ccc(C2=C(c3ccc(F)cc3F)c3ccc(OCCCN4CCN(S(C)(=O)=O)CC4)cc3C2=O)cn1,14.3
c1ccc(-c2cc(CNCC3COCCO3)c3nnnn3c2)cc1 (centres unmarked),69.1

# Set 2 — action: agonist
# Target: Beta-1 adrenergic receptor (ADRB1, Homo sapiens, UniProt P08588)
# Chain of UniProt P08588 (whole entry, looked up): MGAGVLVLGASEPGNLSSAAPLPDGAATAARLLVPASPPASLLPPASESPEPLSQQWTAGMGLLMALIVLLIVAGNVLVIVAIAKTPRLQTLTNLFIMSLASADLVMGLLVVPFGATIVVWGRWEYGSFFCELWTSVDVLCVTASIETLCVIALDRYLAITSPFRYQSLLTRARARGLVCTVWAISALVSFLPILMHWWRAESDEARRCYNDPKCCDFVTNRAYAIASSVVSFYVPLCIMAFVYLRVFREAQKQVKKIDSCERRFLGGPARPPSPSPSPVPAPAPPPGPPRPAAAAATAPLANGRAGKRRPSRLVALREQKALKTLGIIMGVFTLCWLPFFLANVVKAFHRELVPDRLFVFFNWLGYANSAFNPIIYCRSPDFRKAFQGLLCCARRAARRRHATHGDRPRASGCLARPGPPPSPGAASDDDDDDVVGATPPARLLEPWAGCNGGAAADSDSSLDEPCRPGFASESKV
SMILES,EC50 [µM]
COC(=O)C1CCN(CC(O)COc2cccc(CN3CC=C(C)CC3)c2)CC1 (centres unmarked),≥ 100
O=C(Nc1cccc(-c2ccc(N3CCOCC3)nn2)c1)Nc1cc(Cl)ccc1Cl,≥ 100
Cn1c(=O)n(-c2ccc(N3CCN(C(=O)OC(C)(C)C)CC3)c(C(F)(F)F)c2)c2c3cc(-c4cncc(Cl)c4)ccc3ncc21,≥ 100
Cc1cc(-c2nccc3c(=O)cc(N(C)c4ccccc4)oc23)ccn1,≥ 100
O=C(Nc1ccc([C@@H](O)[C@H]2COCC(=O)N2CCCc2ccccc2)cc1)C1CCC1,≥ 100
[O-][n+]1cccc(-c2nc3c(Cl)cccc3cc2[C@@H](Nc2ncnc3cccnc23)C(F)(F)F)c1,≥ 100
C#CC1(OCC(O)CN2CCN(c3cccc(C(F)(F)F)c3)CC2)CCCCC1 (centres unmarked),14.1
N#Cc1ccc(OCC(O)CN2CCN(c3ncnc4ccsc34)CC2)cc1 (centres unmarked),≥ 100

# Set 3 — read-out: enzyme activity; action: inhibitor; tested at: 0.5 µM; reference: control
# Target: Tyrosine-protein kinase ABL1 (ABL1, Homo sapiens, UniProt P00519)
# Chain of UniProt P00519 (whole entry, looked up): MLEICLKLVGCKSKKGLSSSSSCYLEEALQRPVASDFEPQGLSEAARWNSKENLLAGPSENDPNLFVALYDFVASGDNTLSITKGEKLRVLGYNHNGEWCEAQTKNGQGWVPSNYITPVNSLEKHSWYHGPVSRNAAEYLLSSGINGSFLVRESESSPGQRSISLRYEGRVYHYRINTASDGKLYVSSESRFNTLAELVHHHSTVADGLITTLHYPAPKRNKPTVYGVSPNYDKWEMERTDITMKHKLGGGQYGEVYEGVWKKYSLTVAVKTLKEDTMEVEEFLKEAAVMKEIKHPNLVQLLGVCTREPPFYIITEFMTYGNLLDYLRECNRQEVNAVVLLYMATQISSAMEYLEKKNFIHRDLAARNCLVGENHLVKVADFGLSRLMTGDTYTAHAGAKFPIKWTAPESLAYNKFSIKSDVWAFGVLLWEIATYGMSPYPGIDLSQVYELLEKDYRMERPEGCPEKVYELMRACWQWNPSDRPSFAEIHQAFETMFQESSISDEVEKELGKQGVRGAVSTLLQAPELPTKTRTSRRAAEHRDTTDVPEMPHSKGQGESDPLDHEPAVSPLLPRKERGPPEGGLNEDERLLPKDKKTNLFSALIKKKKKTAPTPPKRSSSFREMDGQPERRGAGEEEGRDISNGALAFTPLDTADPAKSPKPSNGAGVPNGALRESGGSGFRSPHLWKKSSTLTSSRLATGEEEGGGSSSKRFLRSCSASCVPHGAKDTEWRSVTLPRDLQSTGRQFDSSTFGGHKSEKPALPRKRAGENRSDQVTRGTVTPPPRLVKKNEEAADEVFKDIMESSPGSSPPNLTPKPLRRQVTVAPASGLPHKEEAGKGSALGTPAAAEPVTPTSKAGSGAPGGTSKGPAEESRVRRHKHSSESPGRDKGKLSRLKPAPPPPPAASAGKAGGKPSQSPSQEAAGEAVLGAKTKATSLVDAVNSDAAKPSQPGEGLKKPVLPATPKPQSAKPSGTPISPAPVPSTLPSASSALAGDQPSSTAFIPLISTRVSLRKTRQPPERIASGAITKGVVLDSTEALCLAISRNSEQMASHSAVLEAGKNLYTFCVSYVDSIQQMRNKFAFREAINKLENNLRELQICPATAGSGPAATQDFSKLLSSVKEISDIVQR
SMILES,remaining activity [%]
COc1ccc(C(=O)Nc2sc3c(c2C(N)=O)CCCC3)cc1OC,101
COc1cc2nccc(Oc3ccc(NC(=S)NC(=O)c4ccccc4C)cc3)c2cc1OC,50.6
NCCNc1ncc(C(N)=O)c(Nc2cccc(C(F)(F)F)c2)n1,96
O=S(=O)(c1cccc2cnccc12)N1CCCNCC1,96.8
Nc1ccc2ncnc(NCCc3ccc(Oc4ccccc4)cc3)c2c1,89.7
CO[C@H]1C[C@@H]2CC[C@@H](C)[C@@](O)(O2)C(=O)C(=O)N2CCCC[C@H]2C(=O)O[C@H]([C@H](C)C[C@@H]2CC[C@@H](O)[C@H](OC)C2)CC(=O)[C@H](C)/C=C(\C)[C@@H](O)[C@@H](OC)C(=O)[C@H](C)C[C@H](C)/C=C/C=C/C=C/1C,103
Cn1sc(=O)n(Cc2ccccc2)c1=O,104
O=C(Nc1cccc(Nc2cc(Nc3cccc(C(F)(F)F)c3)ncn2)c1)C1CC1,103
O=C(O)c1ccc2c3c1cccc3c(=O)n1c3ccccc3nc21,99.3
O=c1c2ccccc2[nH]c(=S)n1CCN1CCC(=C(c2ccc(F)cc2)c2ccc(F)cc2)CC1,106
OCC(O)CCON=C1C(c2c(O)[nH]c3ccccc23)=Nc2ccccc21 (centres unmarked),71.9
O=C(CCCc1ccc(-c2ccccc2F)cc1)Nc1ccc(O)cc1,101
O=C1NC(=O)C(c2cn(CCCn3ccnc3)c3ccccc23)=C1Nc1ccccc1,96.1
Cc1nc(-c2ccccc2)c(-c2ccncc2)o1,100
COc1cc2ncnc(Nc3ccc(Oc4ccccc4)cc3)c2cc1OC,81.8

# Set 4 — read-out: cell-free assay; technique: competition with immobilised ligand; tested at: 1 µM
# Compound: CC1=C(C#N)C(c2ccc3c(c2)c(NC(=O)c2ccccc2C)nn3C)C(C#N)=C(C)N1
target,remaining binding [%]
"Ribosomal protein S6 kinase alpha-2, C-terminal kinase domain (RPS6KA2, Homo sapiens, UniProt Q15349)",94
"MAP3K14 (Homo sapiens, UniProt Q99558)",69
"EPHB1 (Homo sapiens, UniProt P54762)",99
"MAP4K5 (Homo sapiens, UniProt Q9Y4K4)",100
"KIT (Homo sapiens, UniProt P10721, V559D/V654A)",99
"Ribosomal protein S6 kinase alpha-4, C-terminal kinase domain (RPS6KA4, Homo sapiens, UniProt O75676)",89
"PLK2 (Homo sapiens, UniProt Q9NYY3)",74

# Some of these lines once more (set 1):
SMILES,remaining compound [%]
c1ccc(/N=c2/nc(N3CCN(C(c4ccccc4)c4ccccc4)CC3)nc(Nc3ccccc3)[nH]2)cc1,> 99
CC(C)Oc1cccc(/C=C(/F)Oc2ccc(OC[C@@H]3C[C@@](Cn4cncn4)(c4ccc(Cl)cc4Cl)N(C)O3)cc2)c1,0
CCOC(=O)C1SC2(C(F)(F)F)CC1(O)C(C)(C)CO2 (centres unmarked),> 99
Cc1c(Cl)c(C(=O)NN2CCOCC2)nn1C,97.9
COc1ccc(C2=C(c3ccc(F)cc3F)c3ccc(OCCCN4CCN(S(C)(=O)=O)CC4)cc3C2=O)cn1,14.3
